Published values of several laboratories.
Lines come from different studies, so protocols differ. ± marks the error that the study gave.
cas9: CRISPR-associated endonuclease Cas9/Csn1 (cas9, Streptococcus pyogenes serotype M1, UniProt Q99ZW2)
CYP2E1: Cytochrome P450 2E1 (CYP2E1, Homo sapiens, UniProt P05181)
ACHE: Acetylcholinesterase (ACHE, Homo sapiens, UniProt P22303)
HLA class I histocompatibility antigen, B alpha chain allele B*18:01: HLA class I histocompatibility antigen, B alpha chain, allele B*18:01 (Homo sapiens, UniProt P01889)
Neuronal acetylcholine receptor; alpha9/alpha10: Neuronal acetylcholine receptor; alpha9/alpha10 (Homo sapiens, UniProt Q9GZZ6+Q9UGM1)
Protein kinase 6: Protein kinase 6 (Plasmodium falciparum, UniProt Q8IDW1)
HLA class I histocompatibility antigen, B alpha chain: HLA class I histocompatibility antigen, B alpha chain (Homo sapiens, UniProt P01889)

Compound = COc1ccc(CCNCC(O)COc2cccc(C)c2)cc1OC (stereo not shown); target = SLC6A4 (Homo sapiens, UniProt P31645); test = inhibitor; IC50 = 3 µM
Compound = CN(C)C(=O)C(CCN1CCC(O)(c2ccc(Cl)cc2)CC1)(c1ccccc1)c1ccccc1; target = Calcium-activated potassium channel subunit alpha-1, with LRRC26 γ1 subunit (KCNMA1, Homo sapiens, UniProt Q12791); test = BK channel conductance, inhibitor, inside-out patch clamp; conditions = BKα/γ1, Vm 110 mV, nominally Ca2+-free; IC50 = 2.4 ± 0.36 µM
Compound = O=C(O[C@@H]1Cc2c(O)cc(O)cc2O[C@@H]1c1cc(O)c(O)c(O)c1)c1cc(O)c(O)c(O)c1; target = cas9; test = circular plasmid substrate; system = Streptococcus pyogenes; IC50 = 10 to 20 µM
Compound = N[C@@H](Cc1cc(I)c(O)c(I)c1)C(=O)O; target = CYP2E1; test = p-nitrophenol hydroxylation, inhibitor; system = baculosomes; conditions = 10 min, with additive 1 µM; IC50 = 4.1 µM
Compound = Nc1c2c(nc3c1C(c1cccc([N+](=O)[O-])c1)c1ccc(OS(=O)(=O)c4ccccc4)cc1O3)CCCC2 (stereo not shown); target = ACHE; test = enzyme activity, inhibitor; IC50 = 5.51 µM
Compound = CC(C)C[C@H](NC(=O)[C@H](Cc1ccc(O)cc1)NC(=O)CNC(=O)[C@@H](N)C(C)C)C(=O)N[C@@H](CCC(N)=O)C(=O)N1CCC[C@H]1C(=O)N[C@@H](CCCNC(=N)N)C(=O)N[C@H](C(=O)N[C@@H](Cc1ccccc1)C(=O)O)[C@@H](C)O; target = HLA class I histocompatibility antigen, B alpha chain allele B*18:01; test = peptide-MHC binding, radioligand competition binding; IC50 = 0.707 µM
Compound = CNC(C)Cc1ccc2nsnc2c1 (stereo not shown); target = SLC22A1 (Homo sapiens, UniProt O15245); IC50 = 5.4 ± 2.2 µM
Compound = O=C1c2c(O)ccc(O)c2C(=O)c2c(NCCNCCO)ccc(NCCNCCO)c21; target = cas9; test = circular plasmid substrate; system = Streptococcus pyogenes; IC50 = 20 to 50 µM
Compound = CO/N=C1\C[C@]2(C[C@@H]3C[C@@H](C/C=C(\C)C[C@@H](C)/C=C/C=C4\CO[C@@H]5[C@H](O)C(C)=C[C@@H](C(=O)O3)[C@]45O)O2)O[C@H](/C(C)=C/C(C)C)[C@H]1C; target = Bile acid receptor (NR1H4, Homo sapiens, UniProt Q96RI1); test = receptor activity, inhibitor; IC50 = 13.9 ± 0.92 µM
Compound = O=Cc1ccccc1; target = uncharacterized protein (Bradysia odoriphaga, UniProt A0A2S0X9G4); test = binding, competitive fluorescence displacement; conditions = pH 7.4; IC50 = > 50 µM
Compound = N.N.[Cl][Pt][Cl]; target = cas9; test = linear substrate; system = Streptococcus pyogenes; IC50 = 50 to 100 µM
Compound = O=c1c2cc(Cl)c(CO)cc2[nH]c(=S)n1Cc1cccnc1; target = Potassium voltage-gated channel subfamily KQT member 1, with KCNE1 (KCNQ1, Homo sapiens, UniProt P51787); test = KCNQ1/minK current, inhibitor, manual patch clamp; system = CHO cells; IC50 = 1.6 µM
Compound = CC(C)(C)NCC(O)c1cc(O)cc(O)c1 (stereo not shown); target = Gag polyprotein, nucleocapsid protein p7 (gag, Human immunodeficiency virus type 1 group M subtype B, UniProt P04591); test = NCp7-RNA binding, AlphaScreen; system = HIV-1; conditions = with: 25 nM NCp7, 12.5 nM RNA; IC50 = 22.7 µM
Compound = CCOC(=O)c1c(NCc2ccc(SC)cc2)c2cccc(C)c2[nH]c1=O; target = Anoctamin-6 (ANO6, Homo sapiens, UniProt Q4KMQ2); test = anion channel activity, inhibitor, YFP fluorescence quenching; system = FRT cells expressing ANO6; IC50 = 1.64 ± 0.2 µM
Compound = CNCCC(Oc1ccc(C(F)(F)F)cc1)c1ccccc1 (stereo not shown); target = Neuronal acetylcholine receptor; alpha9/alpha10; test = inhibitor; IC50 = 0.82 ± 0.25 µM
Compound = CCN1CCN(Cc2ccc(Nc3nc4ccc(Oc5ccnc(NC(=O)CCN(C)C)c5)cc4n3C)cc2C(F)(F)F)CC1; target = Protein kinase 6; test = enzyme activity, inhibitor; IC50 = 2.9 ± 0.5 µM
Compound = Cc1c2oc3c(C)ccc(C(=O)N[C@@H]4C(=O)N[C@H](C(C)C)C(=O)N5CCC[C@H]5C(=O)N(C)CC(=O)N(C)[C@@H](C(C)C)C(=O)O[C@@H]4C)c3nc-2c(C(=O)N[C@@H]2C(=O)N[C@H](C(C)C)C(=O)N3CCC[C@H]3C(=O)N(C)CC(=O)N(C)[C@@H](C(C)C)C(=O)O[C@@H]2C)c(N)c1=O; target = cas9; test = linear substrate; system = Streptococcus pyogenes; IC50 = 20 to 50 µM
Compound = CSCC[C@H](NC(=O)[C@@H](NC(=O)[C@@H](NC(=O)[C@H](CC(C)C)NC(=O)[C@H](CC(N)=O)NC(=O)[C@H](CC(N)=O)NC(=O)[C@@H](NC(=O)[C@H](C)NC(=O)[C@@H](N)CC(C)C)[C@@H](C)O)C(C)C)C(C)C)C(=O)O; target = HLA class I histocompatibility antigen, B alpha chain allele B*18:01; test = peptide-MHC binding, radioligand competition binding; IC50 = > 70 µM
Compound = O=C(O)c1cccc(C(=O)O)n1; target = dapA (Escherichia coli K-12, UniProt P0A6L2); test = enzyme activity, inhibitor; conditions = 25 °C; IC50 = 15600 µM
Compound = O=c1[nH]cnc2c([C@@H]3N[C@H](CO)[C@@H](O)[C@H]3O)c[nH]c12; target = uncharacterized protein (Trichomonas vaginalis, UniProt A2EYV3); test = inhibitor; IC50 = 11 µM
Compound = CC[C@H](C)[C@H](NC(=O)[C@H](CC(=O)O)NC(=O)[C@H](CCCNC(=N)N)NC(=O)CN)C(=O)N[C@@H](Cc1c[nH]cn1)C(=O)N[C@@H](Cc1ccc(O)cc1)C(=O)N[C@@H](CCC(N)=O)C(=O)N[C@@H](CCC(=O)O)C(=O)NCC(=O)N[C@H](C(=O)N1CCC[C@H]1C(=O)N[C@@H](CO)C(=O)N[C@@H](Cc1ccc(O)cc1)C(=O)N[C@@H](CCC(=O)O)C(=O)N[C@@H](CCC(N)=O)C(=O)N[C@H](C(=O)O)C(C)C)C(C)C; target = H2-Ab1/H2-Aa (Mus musculus, UniProt P01921+P04228); test = binding, radioligand competition; conditions = 2 d, with: radiolabeled peptide 1 nM; IC50 = 0.606 µM
Compound = CCCCCCCCCC(=O)N[C@H]1CCOC1=O; target = expR (Pectobacterium carotovorum, UniProt Q4KS34); IC50 = 0.5 µM
Compound = COc1cc(C(=O)N2CC[C@@H](O)[C@@H](N)C2)cc2nc(-c3cc4ccccc4n3CC3CC3)n(C)c12; target = HTR2A (Homo sapiens, UniProt P28223); test = intracellular calcium, antagonist, luminescence; IC50 = 12.6 µM
Compound = CC(C)C[C@H](NC(=O)[C@@H](NC(=O)N[C@@H](Cc1ccccc1)C(=O)O)[C@@H]1CCN=C(N)N1)C(=O)N[C@H](C=O)Cc1ccccc1; target = Chymase (CMA1, Homo sapiens, UniProt P23946); test = enzyme activity, inhibitor; conditions = with: FP-biotin 1 µM; IC50 = 1.08 µM
Compound = COc1cc(Nc2ncc(F)c(Nc3ccc4c(n3)NC(=O)C(C)(C)O4)n2)cc(OC)c1OC; target = Tryptase; IC50 = > 10 µM
Compound = Nc1ccccc1; target = CYP2E1; test = enzyme activity, inhibitor; conditions = 30 min, pH 7.4; IC50 = 51 µM
Compound = Nc1ccn([C@@H]2O[C@H](COP(=O)(O)OP(=O)(O)OP(=O)(O)O)[C@@H](O)[C@H]2O)c(=O)n1; target = pyrG (Escherichia coli, UniProt P0A7E5); test = enzyme activity; conditions = with: 6.0 mM glutamine, 1.0 mM ATP, 0.20 mM UTP; IC50 = 234 µM
Compound = CC[C@H](C)[C@H](NC(=O)[C@@H](NC(=O)[C@H](Cc1c[nH]c2ccccc12)NC(=O)[C@H](CC(=O)O)NC(=O)[C@@H](NC(=O)[C@H](CCCNC(=N)N)NC(=O)[C@@H](N)CCCCN)C(C)C)[C@@H](C)O)C(=O)N[C@@H](CCC(=O)O)C(=O)N[C@@H](Cc1ccc(O)cc1)C(=O)O; target = HLA class I histocompatibility antigen, B alpha chain; test = peptide-MHC binding, radioligand competition binding; IC50 = > 70 µM
Compound = C[C@H]1CN(c2n[nH]c3nc(N[C@H]4CC[C@H](NS(=O)(=O)CCC(F)(F)F)CC4)ncc23)CCO1; target = IRAK1 (Homo sapiens, UniProt P51617); test = biochemical; IC50 = ≥ 20 µM
Compound = CNCC[C@@H](Oc1ccccc1C)c1ccccc1; target = Neuronal acetylcholine receptor; alpha9/alpha10; test = inhibitor; IC50 = 6.1 ± 2.2 µM
Compound = C[C@H]1COCCN1c1nc(NCc2cccnc2C(F)(F)F)c2cccnc2n1; target = human phosphodiesterase 3; IC50 = > 100 µM
Compound = COc1cccc(C2c3ccc(OS(=O)(=O)c4ccc(C)cc4)cc3Oc3nc4c(c(N)c32)CCCC4)c1 (stereo not shown); target = ACHE; test = enzyme activity, inhibitor; IC50 = 2.62 µM
Compound = CC[C@H](C)[C@H](NC(=O)[C@@H](NC(=O)[C@@H](NC(=O)[C@H](CC(=O)O)NC(=O)[C@H](CC(=O)O)NC(=O)CNC(=O)[C@@H](N)Cc1ccccc1)[C@@H](C)O)C(C)C)C(=O)N[C@@H](CCC(=O)O)C(=O)N[C@H](C(=O)O)C(C)C; target = HLA class I histocompatibility antigen, B alpha chain; test = peptide-MHC binding, radioligand competition binding; IC50 = > 70 µM
Compound = CCN1CCN(Cc2ccc(Nc3nc4ccc(Oc5ccnc(NC(=O)C6CCN(C)CC6)c5)cc4[nH]3)cc2C(F)(F)F)CC1; target = Protein kinase 6; test = enzyme activity, inhibitor; IC50 = 0.4 ± 0.1 µM
Compound = Cc1cc2c(C(C)C)c(O)c(O)c(C=O)c2c(O)c1-c1c(C)cc2c(C(C)C)c(O)c(O)c(C=O)c2c1O; target = cas9; test = linear substrate; system = Streptococcus pyogenes; IC50 = 10 to 20 µM
Compound = CNC(=O)Oc1cccc2c1OC(C)(C)C2; target = Acetylcholinesterase (Rhipicephalus microplus, UniProt O45210, W384F); IC50 = 0.006 µM
Compound = Nc1c2c(nc3c1C(c1cccc(Br)c1)c1ccc(OCC(=O)c4ccccc4)cc1O3)CCCC2 (stereo not shown); target = ACHE; test = enzyme activity, inhibitor; IC50 = 1.14 µM

For quick reference, copied from above:
Compound = COc1cc(Nc2ncc(F)c(Nc3ccc4c(n3)NC(=O)C(C)(C)O4)n2)cc(OC)c1OC; target = Tryptase; IC50 = > 10 µM
Compound = Nc1ccccc1; target = CYP2E1; test = enzyme activity, inhibitor; conditions = 30 min, pH 7.4; IC50 = 51 µM
Compound = Nc1ccn([C@@H]2O[C@H](COP(=O)(O)OP(=O)(O)OP(=O)(O)O)[C@@H](O)[C@H]2O)c(=O)n1; target = pyrG (Escherichia coli, UniProt P0A7E5); test = enzyme activity; conditions = with: 6.0 mM glutamine, 1.0 mM ATP, 0.20 mM UTP; IC50 = 234 µM
Compound = CC[C@H](C)[C@H](NC(=O)[C@@H](NC(=O)[C@H](Cc1c[nH]c2ccccc12)NC(=O)[C@H](CC(=O)O)NC(=O)[C@@H](NC(=O)[C@H](CCCNC(=N)N)NC(=O)[C@@H](N)CCCCN)C(C)C)[C@@H](C)O)C(=O)N[C@@H](CCC(=O)O)C(=O)N[C@@H](Cc1ccc(O)cc1)C(=O)O; target = HLA class I histocompatibility antigen, B alpha chain; test = peptide-MHC binding, radioligand competition binding; IC50 = > 70 µM
Compound = C[C@H]1CN(c2n[nH]c3nc(N[C@H]4CC[C@H](NS(=O)(=O)CCC(F)(F)F)CC4)ncc23)CCO1; target = IRAK1 (Homo sapiens, UniProt P51617); test = biochemical; IC50 = ≥ 20 µM
